Published values from different studies.
A part holds a random share of what one study measured.
UniProt Q5VT25, sequence (whole entry, looked up): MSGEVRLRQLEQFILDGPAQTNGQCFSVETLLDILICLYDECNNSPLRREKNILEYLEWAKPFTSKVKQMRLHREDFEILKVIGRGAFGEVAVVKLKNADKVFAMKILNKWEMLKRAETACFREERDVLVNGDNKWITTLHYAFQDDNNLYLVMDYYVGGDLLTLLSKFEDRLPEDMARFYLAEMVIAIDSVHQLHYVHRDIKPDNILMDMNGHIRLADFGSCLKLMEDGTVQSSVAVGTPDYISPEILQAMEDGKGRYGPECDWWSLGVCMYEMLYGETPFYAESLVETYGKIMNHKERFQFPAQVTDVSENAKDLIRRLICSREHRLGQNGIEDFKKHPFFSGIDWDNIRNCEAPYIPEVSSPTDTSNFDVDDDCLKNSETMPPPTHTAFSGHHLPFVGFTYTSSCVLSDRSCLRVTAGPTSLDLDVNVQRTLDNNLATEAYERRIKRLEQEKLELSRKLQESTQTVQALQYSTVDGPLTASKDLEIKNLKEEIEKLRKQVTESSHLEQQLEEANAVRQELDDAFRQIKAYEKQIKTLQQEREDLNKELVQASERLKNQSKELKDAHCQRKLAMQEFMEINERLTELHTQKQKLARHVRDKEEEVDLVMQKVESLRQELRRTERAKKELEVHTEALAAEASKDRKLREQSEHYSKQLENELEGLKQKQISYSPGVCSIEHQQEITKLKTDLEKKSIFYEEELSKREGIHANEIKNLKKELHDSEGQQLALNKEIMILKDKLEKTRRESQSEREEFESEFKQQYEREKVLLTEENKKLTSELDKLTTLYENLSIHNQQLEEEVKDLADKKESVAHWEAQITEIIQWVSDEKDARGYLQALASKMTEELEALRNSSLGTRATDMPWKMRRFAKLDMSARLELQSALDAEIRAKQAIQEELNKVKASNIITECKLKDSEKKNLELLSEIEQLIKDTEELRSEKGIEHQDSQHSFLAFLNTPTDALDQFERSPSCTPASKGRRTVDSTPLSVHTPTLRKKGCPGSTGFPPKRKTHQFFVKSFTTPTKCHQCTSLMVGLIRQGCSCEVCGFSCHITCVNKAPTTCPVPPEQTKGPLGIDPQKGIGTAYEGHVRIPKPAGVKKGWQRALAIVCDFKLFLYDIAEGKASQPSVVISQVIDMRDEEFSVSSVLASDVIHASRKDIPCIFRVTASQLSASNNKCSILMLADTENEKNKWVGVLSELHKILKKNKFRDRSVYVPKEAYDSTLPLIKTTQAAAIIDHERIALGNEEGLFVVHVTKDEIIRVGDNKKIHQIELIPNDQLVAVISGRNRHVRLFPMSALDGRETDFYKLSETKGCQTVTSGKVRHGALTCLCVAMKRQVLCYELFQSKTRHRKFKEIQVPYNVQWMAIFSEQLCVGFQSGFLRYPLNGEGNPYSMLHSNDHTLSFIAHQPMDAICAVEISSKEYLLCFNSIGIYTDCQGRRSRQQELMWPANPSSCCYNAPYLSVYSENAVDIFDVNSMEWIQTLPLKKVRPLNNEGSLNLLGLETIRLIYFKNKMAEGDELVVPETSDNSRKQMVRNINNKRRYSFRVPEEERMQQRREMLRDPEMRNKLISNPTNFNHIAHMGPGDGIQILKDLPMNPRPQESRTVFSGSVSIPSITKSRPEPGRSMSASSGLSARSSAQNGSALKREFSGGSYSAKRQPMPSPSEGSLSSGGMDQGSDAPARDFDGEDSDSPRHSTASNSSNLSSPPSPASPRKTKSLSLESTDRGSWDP
UniProt O43353, sequence (whole entry, looked up): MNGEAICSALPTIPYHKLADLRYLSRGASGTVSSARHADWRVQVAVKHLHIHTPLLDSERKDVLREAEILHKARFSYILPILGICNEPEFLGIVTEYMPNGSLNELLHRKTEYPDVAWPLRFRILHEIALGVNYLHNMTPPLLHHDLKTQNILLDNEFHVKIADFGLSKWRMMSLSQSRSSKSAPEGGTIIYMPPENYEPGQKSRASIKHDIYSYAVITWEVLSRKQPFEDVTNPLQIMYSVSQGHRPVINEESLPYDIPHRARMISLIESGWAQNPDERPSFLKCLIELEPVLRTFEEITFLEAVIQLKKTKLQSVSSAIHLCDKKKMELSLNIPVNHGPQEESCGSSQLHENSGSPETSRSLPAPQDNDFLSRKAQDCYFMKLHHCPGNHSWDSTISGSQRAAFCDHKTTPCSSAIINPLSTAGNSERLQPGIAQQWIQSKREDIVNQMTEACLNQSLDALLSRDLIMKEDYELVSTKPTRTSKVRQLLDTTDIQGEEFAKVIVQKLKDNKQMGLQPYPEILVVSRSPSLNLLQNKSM
UniProt Q5S007, sequence (whole entry, unmodified, looked up): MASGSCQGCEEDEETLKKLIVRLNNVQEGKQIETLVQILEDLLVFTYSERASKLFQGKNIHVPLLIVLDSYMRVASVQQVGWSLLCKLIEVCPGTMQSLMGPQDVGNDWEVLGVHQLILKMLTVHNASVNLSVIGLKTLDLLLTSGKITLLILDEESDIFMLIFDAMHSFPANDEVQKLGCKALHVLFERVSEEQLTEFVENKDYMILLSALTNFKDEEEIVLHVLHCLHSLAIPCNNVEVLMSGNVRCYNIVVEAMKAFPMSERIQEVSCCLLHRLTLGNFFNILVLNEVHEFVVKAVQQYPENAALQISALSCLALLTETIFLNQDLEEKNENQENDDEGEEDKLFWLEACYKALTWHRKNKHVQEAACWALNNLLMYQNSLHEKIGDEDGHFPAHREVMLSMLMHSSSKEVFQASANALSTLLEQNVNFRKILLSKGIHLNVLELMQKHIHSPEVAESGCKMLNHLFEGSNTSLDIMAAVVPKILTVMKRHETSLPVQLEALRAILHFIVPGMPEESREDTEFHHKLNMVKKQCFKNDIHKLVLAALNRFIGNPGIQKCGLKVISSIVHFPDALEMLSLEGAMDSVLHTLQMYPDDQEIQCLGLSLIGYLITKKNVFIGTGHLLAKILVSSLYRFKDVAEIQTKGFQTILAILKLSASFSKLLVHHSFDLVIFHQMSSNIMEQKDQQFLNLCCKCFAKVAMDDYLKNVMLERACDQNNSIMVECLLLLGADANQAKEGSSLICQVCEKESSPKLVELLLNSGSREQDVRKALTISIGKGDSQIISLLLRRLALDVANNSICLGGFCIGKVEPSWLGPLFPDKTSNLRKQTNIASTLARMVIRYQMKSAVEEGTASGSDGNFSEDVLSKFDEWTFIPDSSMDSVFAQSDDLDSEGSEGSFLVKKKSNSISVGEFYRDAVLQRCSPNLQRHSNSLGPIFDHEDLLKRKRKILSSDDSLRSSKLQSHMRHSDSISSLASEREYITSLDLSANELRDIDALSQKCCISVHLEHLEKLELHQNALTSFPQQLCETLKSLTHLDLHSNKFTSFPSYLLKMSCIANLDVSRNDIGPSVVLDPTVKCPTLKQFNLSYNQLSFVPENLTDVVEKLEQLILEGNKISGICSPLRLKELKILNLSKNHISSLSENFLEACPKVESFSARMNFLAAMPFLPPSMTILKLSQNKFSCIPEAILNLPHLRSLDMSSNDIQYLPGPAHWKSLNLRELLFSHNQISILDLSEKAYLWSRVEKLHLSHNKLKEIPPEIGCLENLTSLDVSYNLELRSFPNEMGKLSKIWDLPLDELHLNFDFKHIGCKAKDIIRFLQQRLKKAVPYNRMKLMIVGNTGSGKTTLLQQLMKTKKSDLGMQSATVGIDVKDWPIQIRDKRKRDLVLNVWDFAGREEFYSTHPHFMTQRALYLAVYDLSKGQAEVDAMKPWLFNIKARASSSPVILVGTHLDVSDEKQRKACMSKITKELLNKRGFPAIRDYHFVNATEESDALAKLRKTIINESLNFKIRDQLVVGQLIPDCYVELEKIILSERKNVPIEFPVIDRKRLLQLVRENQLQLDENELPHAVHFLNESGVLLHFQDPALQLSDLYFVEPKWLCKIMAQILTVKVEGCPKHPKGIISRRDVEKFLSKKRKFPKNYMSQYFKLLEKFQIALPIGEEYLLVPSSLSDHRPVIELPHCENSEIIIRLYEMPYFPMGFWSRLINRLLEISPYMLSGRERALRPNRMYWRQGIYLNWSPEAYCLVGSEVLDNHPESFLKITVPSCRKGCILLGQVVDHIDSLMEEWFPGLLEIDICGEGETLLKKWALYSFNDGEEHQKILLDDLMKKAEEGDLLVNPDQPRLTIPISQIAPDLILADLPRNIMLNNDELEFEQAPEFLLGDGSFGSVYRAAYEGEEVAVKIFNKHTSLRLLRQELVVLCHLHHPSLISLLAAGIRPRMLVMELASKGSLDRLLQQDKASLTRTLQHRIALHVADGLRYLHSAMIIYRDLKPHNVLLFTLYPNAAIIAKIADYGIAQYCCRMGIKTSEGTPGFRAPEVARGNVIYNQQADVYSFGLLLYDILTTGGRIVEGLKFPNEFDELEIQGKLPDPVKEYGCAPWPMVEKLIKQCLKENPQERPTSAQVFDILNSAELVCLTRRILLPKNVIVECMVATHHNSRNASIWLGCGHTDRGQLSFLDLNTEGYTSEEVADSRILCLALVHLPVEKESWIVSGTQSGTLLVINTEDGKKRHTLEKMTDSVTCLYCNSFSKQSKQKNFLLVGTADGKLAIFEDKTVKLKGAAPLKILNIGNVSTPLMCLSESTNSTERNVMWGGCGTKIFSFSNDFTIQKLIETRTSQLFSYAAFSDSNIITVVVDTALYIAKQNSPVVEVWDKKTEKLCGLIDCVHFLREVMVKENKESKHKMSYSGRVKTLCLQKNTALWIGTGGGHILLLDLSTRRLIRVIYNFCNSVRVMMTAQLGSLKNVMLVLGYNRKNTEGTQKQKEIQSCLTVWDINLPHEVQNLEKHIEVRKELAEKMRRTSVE
UniProt P51817, sequence (whole entry, looked up): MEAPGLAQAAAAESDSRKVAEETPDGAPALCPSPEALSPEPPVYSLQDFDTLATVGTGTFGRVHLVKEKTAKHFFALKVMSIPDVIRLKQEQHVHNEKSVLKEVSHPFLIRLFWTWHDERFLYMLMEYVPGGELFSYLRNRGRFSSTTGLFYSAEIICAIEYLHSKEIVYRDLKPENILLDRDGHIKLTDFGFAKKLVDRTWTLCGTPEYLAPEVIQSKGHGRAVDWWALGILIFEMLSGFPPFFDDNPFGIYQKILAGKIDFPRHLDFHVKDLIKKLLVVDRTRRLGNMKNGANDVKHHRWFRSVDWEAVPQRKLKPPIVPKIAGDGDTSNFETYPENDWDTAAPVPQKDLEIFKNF

Series 1
SMILES: O=c1cc(N2CCOCC2)oc2c(-c3ccccc3)cccc12
Observed: enzyme activity
Mode: inhibitor
Concentration: 0.5 µM
Reference: control
| target | remaining activity |
| --- | --- |
| MATK (Homo sapiens, UniProt P42679) | 84.6% |
| PASK (Homo sapiens, UniProt Q96RG2) | 90.2% |
| FYN (Homo sapiens, UniProt P06241) | 100% |
| ALK (Homo sapiens, UniProt Q9UM73) | 92.3% |
| PRKX (Homo sapiens, UniProt P51817) | 101% |
| FGR (Homo sapiens, UniProt P09769) | 97.5% |
| SRC (Homo sapiens, UniProt P12931) | 96.3% |
| MARK3 (Homo sapiens, UniProt P27448) | 95.4% |
| ITK (Homo sapiens, UniProt Q08881) | 93.3% |
| AKT1 (Homo sapiens, UniProt P31749) | 95.7% |
| HIPK1 (Homo sapiens, UniProt Q86Z02) | 111% |
| Cyclin-dependent kinase 3, with cyclin E (CDK3, Homo sapiens, UniProt Q00526) | 89.6% |
| LIM domain kinase 1 (LIMK1, Homo sapiens, UniProt P53667) | 98.6% |
| NLK (Homo sapiens, UniProt Q9UBE8) | 99.8% |
| FLT4 (Homo sapiens, UniProt P35916) | 96.4% |
| NEK11 (Homo sapiens, UniProt Q8NG66) | 102% |
| TAOK3 (Homo sapiens, UniProt Q9H2K8) | 88.2% |
| CDC42BPA (Homo sapiens, UniProt Q5VT25) | 104% |
| FER (Homo sapiens, UniProt P16591) | 99.9% |
| Insulin receptor (INSR, Homo sapiens, UniProt P06213) | 104% |
| PKN1 (Homo sapiens, UniProt Q16512) | 109% |
| STK25 (Homo sapiens, UniProt O00506) | 116% |

Series 2
SMILES: CNC(=O)c1ccc(Nc2ncc(C(F)(F)F)c(NCc3nccnc3N(C)S(C)(=O)=O)n2)cc1
Observed: cell-free assay
Technique: competition with immobilised ligand
Concentration: 0.1 µM
| target | remaining binding [%] |
| --- | --- |
| VRK2 (Homo sapiens, UniProt Q86Y07) | 85 |
| PRKG2 (Homo sapiens, UniProt Q13237) | 100 |
| EPHB1 (Homo sapiens, UniProt P54762) | 87 |
| TGFBR1 (Homo sapiens, UniProt P36897) | 87 |
| LRRK2 (Homo sapiens, UniProt Q5S007, G2019S) | 65 |
| FLT1 (Homo sapiens, UniProt P17948) | 63 |
| DYRK1A (Homo sapiens, UniProt Q13627) | 71 |
| PRPF4B (Homo sapiens, UniProt Q13523) | 69 |
| CHUK (Homo sapiens, UniProt O15111) | 98 |
| RIPK2 (Homo sapiens, UniProt O43353) | 100 |
| MTOR (Homo sapiens, UniProt P42345) | 100 |
| Ribosomal protein S6 kinase alpha-3, N-terminal kinase domain (RPS6KA3, Homo sapiens, UniProt P51812) | 82 |
| Tyrosine-protein kinase ABL1, non-phosphorylated (ABL1, Homo sapiens, UniProt P00519, H396P) | 68 |
| TSSK3 (Homo sapiens, UniProt Q96PN8) | 77 |
| PTK6 (Homo sapiens, UniProt Q13882) | 100 |
| RIPK4 (Homo sapiens, UniProt P57078) | 89 |
| KDR (Homo sapiens, UniProt P35968) | 73 |
| CDC42BPA (Homo sapiens, UniProt Q5VT25) | 98 |
| NTRK3 (Homo sapiens, UniProt Q16288) | 41 |

Series 3
Organism: Plasmodium berghei
Cell line: Huh-7
Strain: liver stage
Concentration: 10 µM
Time: 24 h
Reference: control
| Compound | parasite load |
| --- | --- |
| CC[N+](C)(C)Cc1ccccc1Br | 105% |
| CC1=C(C(=O)O)N2C(=O)[C@@H](NC(=O)[C@H](N)c3ccccc3)[C@H]2SC1 | 108% |
| C(=C\N1CCN(C(c2ccccc2)c2ccccc2)CC1)/Cc1ccccc1 | 69.5% |
| Nc1nc2ccc(OC(F)(F)F)cc2s1 | 107% |
| Clc1ccc2c(c1)C(N1CCNCC1)=Nc1ccccc1O2 | 77.1% |
| CN1[C@@H]2CC[C@H]1C[C@@H](OC(=O)C(CO)c1ccccc1)C2 (stereo partly drawn) | 119% |
| COc1ccc(CCN2CCC(Nc3nc4ccccc4n3Cc3ccc(F)cc3)CC2)cc1 | 22.1% |
| O=C(CCBr)N1CCN(C(=O)CCBr)CC1 | 106% |
| CNC(=O)Oc1ccc2c(c1)[C@]1(C)CCN(C)[C@@H]1N2C | 86.2% |

Single results of other studies
| Structure (SMILES) | system | setting | quantity | result |
| --- | --- | --- | --- | --- |
| CC(C)n1cnc(-c2ccc(F)cc2)c1-c1ncc(C(=O)Nc2ccc(N3CCN(C)CC3)cc2)[nH]1 | IPF patients | 30 mg once daily, adverse event incidence | blood urea increased | 0% |
